# Published values collected from several papers.
# ± marks the error that the study gave.
SMILES,tested on,assay,system,setting,how to read,quantity,result
Nc1nc2cc(CC[C@H]3C[C@@H](n4ccc5c(N)ncnc54)[C@H](O)[C@@H]3O)ccc2cc1Br,,,"NCI-H520 xenograft, mouse","10.0 mg/kg/day, day 27",,%ΔTGI,109%
COC1OC(C)C(O)C(OC2OC(C)C(O)C(OC3OC(C)C(O)C(OC4OC(C)C(O)C(OC5OC(C)C(O)C(OC6OC(C)C(O)C(OC7OC(C)C(O)C(OC8OC(C)C(O)C(OC9OC(C)C(O)C(OC%10OC(C)C(O)C(OC%11OC(C)C(O)C(OC%12OC(C)C(O)C(OS(=O)(=O)O)C%12OS(=O)(=O)O)C%11OS(=O)(=O)O)C%10OS(=O)(=O)O)C9OS(=O)(=O)O)C8OS(=O)(=O)O)C7OS(=O)(=O)O)C6OS(=O)(=O)O)C5OS(=O)(=O)O)C4OS(=O)(=O)O)C3OS(=O)(=O)O)C2OS(=O)(=O)O)C1OS(=O)(=O)O (stereo not shown),,,human plasma,128 µg/mL,,activated partial thromboplastin time,42.6 ± 0.3 s
C[n+]1ccc(/C=N/NC(=O)c2cccc(C(=O)N/N=C/c3cc[n+](C)cc3)c2)cc1,22CTA telomeric G4-DNA antiparallel,FRET melting,,"1 µM, K10 buffer, DNA 0.2 µM, together with: ds26 10 µM",,ΔTm,1.8 ± 0.3 °C
O=c1c(Oc2ccccc2)c(C(F)(F)F)oc2c(O)c(O)ccc12,ROC1-CUL1 E3 subcomplex,di-ubiquitin synthesis,,300 µM,reference: input,di-ubiquitin formed,19%
COC1OC(C)C(OS(=O)(=O)O)C(OC2OC(C)C(OS(=O)(=O)O)C(OC3OC(C)C(OS(=O)(=O)O)C(OS(=O)(=O)O)C3OS(=O)(=O)O)C2OS(=O)(=O)O)C1OS(=O)(=O)O (stereo not shown),,,human plasma,128 µg/mL,,activated partial thromboplastin time,53.9 ± 1.7 s
O=C(N/N=C/c1ccc(C[n+]2ccccc2)cc1)c1cccc(C(=O)N/N=C/c2ccc(C[n+]3ccccc3)cc2)c1,22CTA telomeric G4-DNA antiparallel,FRET melting,,"1 µM, K10 buffer, DNA 0.2 µM, together with: ds26 10 µM",,ΔTm,3.3 ± 0.2 °C
C=CC(=O)Nc1cccc(Cn2ncc3cnc(Nc4cnn(CCOC)c4)nc32)c1,MERTK human,"binding, KINOMEscan",,100 nM,lower = stronger binding,percent of control,100%
C[n+]1ccc(/C=N/NC(=O)c2cncc(C(=O)N/N=C/c3cc[n+](C)c4ccccc34)n2)c2ccccc21,G-quadruplex DNA myc22 parallel,UV melting,,"6 µM, K10 buffer, together with: DNA 3 µM",,delta Tm,28.6 °C
CO[C@@H]1[C@@H](OC(N)=O)[C@@H](O)[C@H](Oc2ccc3c(O)c(NC(=O)c4ccc(O)c(CC=C(C)C)c4)c(=O)oc3c2C)OC1(C)C,DLD-1 BRCA2-/-,,,"75 µM, replicate A",reference: untreated,colony survival,5.08%
C=C(NC(=O)c1csc(-c2nc3c(cc2O)-c2nc(cs2)C(=O)NC(C(C)O)C(=O)NC(=C(C)OC)c2nc(cs2)C(=O)NC2c4nc(cs4)C(=O)NC(COC(=O)c4c5c6c(cccc6n4O)COC(=O)C(OC4CC(C)(O)C(N(C)C)C(C)O4)C2OC5)c2nc-3cs2)n1)C(N)=O (stereo not shown),Staphylococcus epidermidis,,"methicillin-resistant, 10 isolates",pH 5.5,,MIC50,7.8 ng/mL
c1ccc(-c2n[nH]cc2-c2ccnc3ccccc23)nc1,CKA1 (Candida albicans),"kinase binding, MIB/MS competition",Candida albicans lysate,10 µM,reference: DMSO,log2 fold change,-0.31
C[n+]1ccc(/C=N/NC(=O)c2cccc(C(=O)N/N=C/c3cc[n+](C)c4ccccc34)n2)c2ccccc21,G-quadruplex DNA myc22 parallel,UV melting,,"6 µM, K10 buffer, together with: DNA 3 µM",,delta Tm,35 °C
C=CC(=O)N1[C@H](c2ccc3c(c2)OCO3)c2[nH]c3ccccc3c2C[C@@H]1C(=O)N1CCN(C)CC1,human cyclin E1 N112C-3xFLAG:CDK2,"co-IP with TMT proteomics, refers to: RBMX",,"concentration not given, P38159",reference: wild type DMSO,relative co-enrichment,153%
COC1OC(C)C(OC2OC(C)C(O)C(OC3OC(C)C(OC4OC(C)C(O)C(OC5OC(C)C(O)C(OS(=O)(=O)O)C5OS(=O)(=O)O)C4OS(=O)(=O)O)C(OS(=O)(=O)O)C3OS(=O)(=O)O)C2OS(=O)(=O)O)C(OS(=O)(=O)O)C1OS(=O)(=O)O (stereo not shown),,,human plasma,128 µg/mL,,activated partial thromboplastin time,56.6 ± 0.3 s
O=C(N/N=C/c1cc[n+](CC2CC2)c2ccccc12)c1cncc(C(=O)N/N=C/c2cc[n+](CC3CC3)c3ccccc23)n1,22CTA telomeric G4-DNA antiparallel,FRET melting,,"1 µM, K10 buffer, DNA 0.2 µM, together with: ds26 10 µM",,ΔTm,15.2 ± 0.2 °C
COC1OC(C)C(OS(=O)(=O)O)C(OC2OC(C)C(OS(=O)(=O)O)C(OC3OC(C)C(OS(=O)(=O)O)C(OC4OC(C)C(OS(=O)(=O)O)C(OC5OC(C)C(OS(=O)(=O)O)C(OC6OC(C)C(OS(=O)(=O)O)C(OC7OC(C)C(OS(=O)(=O)O)C(OC8OC(C)C(OS(=O)(=O)O)C(OC9OC(C)C(OS(=O)(=O)O)C(OC%10OC(C)C(OS(=O)(=O)O)C(OS(=O)(=O)O)C%10O)C9O)C8O)C7O)C6O)C5O)C4O)C3O)C2O)C1O (stereo not shown),,,human plasma,128 µg/mL,,activated partial thromboplastin time,42 ± 0.5 s
O=C(N/N=C/c1ccc2c(ccc[n+]2Cc2ccccc2)c1)c1cc(C(=O)N/N=C/c2ccc3c(ccc[n+]3Cc3ccccc3)c2)ncn1,22CTA telomeric G4-DNA antiparallel,FRET melting,,"1 µM, K10 buffer, DNA 0.2 µM, together with: ds26 10 µM",,ΔTm,11.8 ± 0.6 °C
COC1CN([C@H]2CC[C@H]([C@@]3(C)Oc4c(Cl)cc(C(=O)NCc5c(SC)cc(C)[nH]c5=O)c(C)c4O3)CC2)C1,,"RNA-seq, refers to: NKD2 mouse homolog","mouse, HT-1376 xenograft, whole blood",dose not given,reference: vehicle,log2 fold change,1.88
Cc1ncsc1-c1ccc(C(C)NC(=O)C2CC(O)CN2C(=O)C(NC(=O)CCCCCCCCCCN2CCCC(Nc3ncc(Cl)c(Nc4ccccc4S(=O)(=O)C(C)C)n3)C2)C(C)(C)C)cc1 (stereo not shown),22Rv1,"RNA-seq, refers to: ZNF557 mRNA",,concentration not given,reference: DMSO,log2 fold change,-1.98
CC[n+]1cccc2cc(/C=N/NC(=O)N/N=C/c3ccc4c(ccc[n+]4CC)c3)ccc21,22CTA telomeric G4-DNA antiparallel,FRET melting,,"1 µM, K10 buffer, DNA 0.2 µM, together with: ds26 10 µM",,ΔTm,2.4 ± 1.1 °C
Nc1ncc(-c2cc(-c3cnn(CC(F)(F)F)c3)ncc2F)nc1C(=O)NC1CNCC(F)C1 (stereo not shown),MAP3K2,KINOMEscan,,1 µM,reference: DMSO control,remaining binding,36%
COC1OC(C)C(OC2OC(C)C(OS(=O)(=O)O)C(OC3OC(C)C(OC4OC(C)C(OS(=O)(=O)O)C(OC5OC(C)C(OC6OC(C)C(OS(=O)(=O)O)C(OC7OC(C)C(OC8OC(C)C(OS(=O)(=O)O)C(OC9OC(C)C(OC%10OC(C)C(OS(=O)(=O)O)C(OC%11OC(C)C(OC%12OC(C)C(OS(=O)(=O)O)C(OS(=O)(=O)O)C%12O)C(OS(=O)(=O)O)C%11O)C%10O)C(OS(=O)(=O)O)C9O)C8O)C(OS(=O)(=O)O)C7O)C6O)C(OS(=O)(=O)O)C5O)C4O)C(OS(=O)(=O)O)C3O)C2O)C(OS(=O)(=O)O)C1O (stereo not shown),,,human plasma,128 µg/mL,,activated partial thromboplastin time,47.7 ± 1 s

# Some of these lines once more:
SMILES,tested on,assay,system,setting,how to read,quantity,result
COC1OC(C)C(OS(=O)(=O)O)C(OC2OC(C)C(OS(=O)(=O)O)C(OC3OC(C)C(OS(=O)(=O)O)C(OC4OC(C)C(OS(=O)(=O)O)C(OC5OC(C)C(OS(=O)(=O)O)C(OC6OC(C)C(OS(=O)(=O)O)C(OC7OC(C)C(OS(=O)(=O)O)C(OC8OC(C)C(OS(=O)(=O)O)C(OC9OC(C)C(OS(=O)(=O)O)C(OC%10OC(C)C(OS(=O)(=O)O)C(OS(=O)(=O)O)C%10O)C9O)C8O)C7O)C6O)C5O)C4O)C3O)C2O)C1O (stereo not shown),,,human plasma,128 µg/mL,,activated partial thromboplastin time,42 ± 0.5 s
C[n+]1ccc(/C=N/NC(=O)c2cccc(C(=O)N/N=C/c3cc[n+](C)cc3)c2)cc1,22CTA telomeric G4-DNA antiparallel,FRET melting,,"1 µM, K10 buffer, DNA 0.2 µM, together with: ds26 10 µM",,ΔTm,1.8 ± 0.3 °C
